Experimental data of several laboratories.
A part holds a random share of what one study measured.

Set 1
Target: Histone acetyltransferase KAT6A, winged helix 1, GST fusion (KAT6A, Homo sapiens, UniProt Q92794, residues 1-85)
Method: protein binding microarray
Form: double-stranded DNA, one strand shown
Matrix: in vitro
Tested at: not given
Notes: 8-mer, flanks averaged, mean of 2 arrays, mostly near background
Relative to: not given
Reading: higher = stronger binding
Quantity: E-score
Target sequence (chain): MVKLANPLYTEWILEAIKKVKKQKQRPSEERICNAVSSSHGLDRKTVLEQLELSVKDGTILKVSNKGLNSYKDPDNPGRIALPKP
GAAGGAGC: 0.0312
ACACGGTG: 0.205
AAACATCT: -0.0863
CATAGCAC: -0.0204
AGGAGCGG: 0.283
AACCTGTG: -0.274
CACTACGC: 0.0789

Set 2
Target: Centromere-binding protein 1, full length, His-tagged (CBF1, Saccharomyces cerevisiae, UniProt P17106, residues 1-351)
UniProt P17106, sequence (whole entry, looked up): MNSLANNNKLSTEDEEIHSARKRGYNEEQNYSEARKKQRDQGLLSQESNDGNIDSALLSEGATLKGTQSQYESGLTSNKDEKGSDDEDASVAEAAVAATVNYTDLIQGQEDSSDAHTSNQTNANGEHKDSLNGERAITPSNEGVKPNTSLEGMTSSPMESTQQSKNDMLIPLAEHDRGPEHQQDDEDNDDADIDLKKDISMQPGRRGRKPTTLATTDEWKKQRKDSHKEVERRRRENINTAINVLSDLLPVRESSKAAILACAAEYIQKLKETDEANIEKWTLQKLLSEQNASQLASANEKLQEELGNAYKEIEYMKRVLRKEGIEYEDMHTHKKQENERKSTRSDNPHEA
Method: competition protein-binding microarray
Form: double-stranded DNA, one strand shown
Matrix: in vitro
Tested at: 2 µM
Notes: whole 60-bp probe, lowest competitor level
Added: Pho4 competitor, 0.05 µM
Reading: higher = stronger binding
Quantity: fluorescence intensity
Shared flanks, not repeated: … GTCTTGATTCGCTTGACGCTGCTG
CTTTCCCGATCTTGCCCAGTGGGTGTAGCACATTTG: 61.6 a.u.
GCAGAGTGATAGCGTCACAGGAAATAGCGCAACCTT: 66.9 a.u.
CTTTCCCGATCTTGTCAGGTGGGTGTAGCACATTTG: 149 a.u.
AGTAGCCAACTTCTTAACGTGTTGGGCAAGCAAGAT: 78.1 a.u.
AAGCAAGAACGAAAGCACGTTCTTGAAGATCTGCAT: 111 a.u.
TCGTCGGTTTATTGTCTCGTGGTGATTTGCGTTAAA: 151 a.u.
ATCAAGGTGCCTTGCCACCTGATCTATCTTTGATCG: 188 a.u.

Set 3
Target: Sal-like protein 4, full length isoform B (SALL4, Homo sapiens, UniProt Q9UJQ4-2, residues 1-616)
Method: universal PBM
Form: double-stranded DNA, one strand shown
Matrix: in vitro
Tested at: not given
Notes: 8-mer, flanks averaged, mean of replicates
Reading: higher = stronger binding
Quantity: E-score
ACGTGGAT: 0.0575
GAAGGGTC: -0.229
TGGTCCAA: -0.122
ACACTGTG: -0.0996
GAGCGATA: 0.0422
ATTTTTTG: 0.314
ACCTCCAG: -0.0814
CCTCGTGC: -0.15

Mixed results
PhoQ, residues 284 288 289 292 302 303 SASVAL
fold induction (PhoP, residues 12 14 15 18 19 SGWQI (Escherichia coli, UniProt P23836); Sort-seq, measured: YFP reporter; E. coli; PhoQ-PhoP variant library, added: 10 µM Mg2+; relative to: high Mg2+ state, higher = stronger signaling): 0.915

Repeated from above (set 2):
AAGCAAGAACGAAAGCACGTTCTTGAAGATCTGCAT: 111 a.u.
TCGTCGGTTTATTGTCTCGTGGTGATTTGCGTTAAA: 151 a.u.
